Measurements pooled from the literature.
Parts stem from different laboratories: compare values within a part only. Values joined by “and” are separate records of one study, mostly repeats; a detail may differ.
Sequence of UniProt O00444 (whole entry, looked up): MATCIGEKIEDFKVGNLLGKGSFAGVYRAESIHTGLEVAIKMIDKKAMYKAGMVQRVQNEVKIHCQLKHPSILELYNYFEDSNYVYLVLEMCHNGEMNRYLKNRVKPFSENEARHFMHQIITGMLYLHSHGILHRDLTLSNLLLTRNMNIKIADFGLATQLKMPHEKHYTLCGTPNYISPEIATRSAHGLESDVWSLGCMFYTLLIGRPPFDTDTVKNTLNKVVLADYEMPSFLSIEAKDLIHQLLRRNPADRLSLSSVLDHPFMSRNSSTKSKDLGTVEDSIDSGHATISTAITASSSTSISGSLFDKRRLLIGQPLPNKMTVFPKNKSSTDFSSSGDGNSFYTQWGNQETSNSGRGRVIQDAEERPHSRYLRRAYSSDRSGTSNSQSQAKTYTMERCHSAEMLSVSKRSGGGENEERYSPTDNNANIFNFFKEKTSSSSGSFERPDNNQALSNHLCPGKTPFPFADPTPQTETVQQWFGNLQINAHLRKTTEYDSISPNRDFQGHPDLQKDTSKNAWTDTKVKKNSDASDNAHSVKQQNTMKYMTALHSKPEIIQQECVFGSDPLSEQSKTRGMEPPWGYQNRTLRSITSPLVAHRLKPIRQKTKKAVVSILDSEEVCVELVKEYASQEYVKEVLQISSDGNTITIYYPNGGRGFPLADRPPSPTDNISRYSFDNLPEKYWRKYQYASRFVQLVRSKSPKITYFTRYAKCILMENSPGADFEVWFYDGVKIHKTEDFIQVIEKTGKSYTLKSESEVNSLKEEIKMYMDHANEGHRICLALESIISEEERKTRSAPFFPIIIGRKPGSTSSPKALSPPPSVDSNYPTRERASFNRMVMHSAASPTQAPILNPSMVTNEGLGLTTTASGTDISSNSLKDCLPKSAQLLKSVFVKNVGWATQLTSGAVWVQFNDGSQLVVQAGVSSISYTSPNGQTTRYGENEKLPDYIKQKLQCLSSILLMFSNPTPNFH
Sequence of UniProt Q9NY57 (whole entry, looked up): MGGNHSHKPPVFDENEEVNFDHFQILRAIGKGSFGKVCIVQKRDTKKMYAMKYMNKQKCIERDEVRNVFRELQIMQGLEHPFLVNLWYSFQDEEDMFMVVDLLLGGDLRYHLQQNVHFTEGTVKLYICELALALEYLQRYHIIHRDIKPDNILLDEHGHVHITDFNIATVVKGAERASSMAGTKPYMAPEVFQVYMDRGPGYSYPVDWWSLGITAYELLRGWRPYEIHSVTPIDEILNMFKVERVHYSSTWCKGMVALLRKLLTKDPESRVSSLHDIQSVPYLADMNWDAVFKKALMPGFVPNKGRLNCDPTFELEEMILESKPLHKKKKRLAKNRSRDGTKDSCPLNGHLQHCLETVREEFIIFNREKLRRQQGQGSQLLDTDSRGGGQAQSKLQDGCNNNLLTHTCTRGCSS
Sequence of UniProt P28482 (whole entry, looked up): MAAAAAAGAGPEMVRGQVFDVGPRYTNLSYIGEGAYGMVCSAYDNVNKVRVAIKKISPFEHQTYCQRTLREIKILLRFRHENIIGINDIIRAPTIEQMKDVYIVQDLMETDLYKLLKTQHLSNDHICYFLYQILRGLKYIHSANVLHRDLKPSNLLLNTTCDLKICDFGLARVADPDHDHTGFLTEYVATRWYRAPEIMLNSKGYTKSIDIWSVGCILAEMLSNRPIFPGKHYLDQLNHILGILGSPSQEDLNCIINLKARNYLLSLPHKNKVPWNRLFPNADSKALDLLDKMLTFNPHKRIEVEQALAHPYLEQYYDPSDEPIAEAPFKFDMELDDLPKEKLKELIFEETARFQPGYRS

Study 1
Target: DNA polymerase theta, ATPase domain (POLQ, Homo sapiens, UniProt O75417)
Sequence of UniProt O75417 (whole entry, unmodified, looked up): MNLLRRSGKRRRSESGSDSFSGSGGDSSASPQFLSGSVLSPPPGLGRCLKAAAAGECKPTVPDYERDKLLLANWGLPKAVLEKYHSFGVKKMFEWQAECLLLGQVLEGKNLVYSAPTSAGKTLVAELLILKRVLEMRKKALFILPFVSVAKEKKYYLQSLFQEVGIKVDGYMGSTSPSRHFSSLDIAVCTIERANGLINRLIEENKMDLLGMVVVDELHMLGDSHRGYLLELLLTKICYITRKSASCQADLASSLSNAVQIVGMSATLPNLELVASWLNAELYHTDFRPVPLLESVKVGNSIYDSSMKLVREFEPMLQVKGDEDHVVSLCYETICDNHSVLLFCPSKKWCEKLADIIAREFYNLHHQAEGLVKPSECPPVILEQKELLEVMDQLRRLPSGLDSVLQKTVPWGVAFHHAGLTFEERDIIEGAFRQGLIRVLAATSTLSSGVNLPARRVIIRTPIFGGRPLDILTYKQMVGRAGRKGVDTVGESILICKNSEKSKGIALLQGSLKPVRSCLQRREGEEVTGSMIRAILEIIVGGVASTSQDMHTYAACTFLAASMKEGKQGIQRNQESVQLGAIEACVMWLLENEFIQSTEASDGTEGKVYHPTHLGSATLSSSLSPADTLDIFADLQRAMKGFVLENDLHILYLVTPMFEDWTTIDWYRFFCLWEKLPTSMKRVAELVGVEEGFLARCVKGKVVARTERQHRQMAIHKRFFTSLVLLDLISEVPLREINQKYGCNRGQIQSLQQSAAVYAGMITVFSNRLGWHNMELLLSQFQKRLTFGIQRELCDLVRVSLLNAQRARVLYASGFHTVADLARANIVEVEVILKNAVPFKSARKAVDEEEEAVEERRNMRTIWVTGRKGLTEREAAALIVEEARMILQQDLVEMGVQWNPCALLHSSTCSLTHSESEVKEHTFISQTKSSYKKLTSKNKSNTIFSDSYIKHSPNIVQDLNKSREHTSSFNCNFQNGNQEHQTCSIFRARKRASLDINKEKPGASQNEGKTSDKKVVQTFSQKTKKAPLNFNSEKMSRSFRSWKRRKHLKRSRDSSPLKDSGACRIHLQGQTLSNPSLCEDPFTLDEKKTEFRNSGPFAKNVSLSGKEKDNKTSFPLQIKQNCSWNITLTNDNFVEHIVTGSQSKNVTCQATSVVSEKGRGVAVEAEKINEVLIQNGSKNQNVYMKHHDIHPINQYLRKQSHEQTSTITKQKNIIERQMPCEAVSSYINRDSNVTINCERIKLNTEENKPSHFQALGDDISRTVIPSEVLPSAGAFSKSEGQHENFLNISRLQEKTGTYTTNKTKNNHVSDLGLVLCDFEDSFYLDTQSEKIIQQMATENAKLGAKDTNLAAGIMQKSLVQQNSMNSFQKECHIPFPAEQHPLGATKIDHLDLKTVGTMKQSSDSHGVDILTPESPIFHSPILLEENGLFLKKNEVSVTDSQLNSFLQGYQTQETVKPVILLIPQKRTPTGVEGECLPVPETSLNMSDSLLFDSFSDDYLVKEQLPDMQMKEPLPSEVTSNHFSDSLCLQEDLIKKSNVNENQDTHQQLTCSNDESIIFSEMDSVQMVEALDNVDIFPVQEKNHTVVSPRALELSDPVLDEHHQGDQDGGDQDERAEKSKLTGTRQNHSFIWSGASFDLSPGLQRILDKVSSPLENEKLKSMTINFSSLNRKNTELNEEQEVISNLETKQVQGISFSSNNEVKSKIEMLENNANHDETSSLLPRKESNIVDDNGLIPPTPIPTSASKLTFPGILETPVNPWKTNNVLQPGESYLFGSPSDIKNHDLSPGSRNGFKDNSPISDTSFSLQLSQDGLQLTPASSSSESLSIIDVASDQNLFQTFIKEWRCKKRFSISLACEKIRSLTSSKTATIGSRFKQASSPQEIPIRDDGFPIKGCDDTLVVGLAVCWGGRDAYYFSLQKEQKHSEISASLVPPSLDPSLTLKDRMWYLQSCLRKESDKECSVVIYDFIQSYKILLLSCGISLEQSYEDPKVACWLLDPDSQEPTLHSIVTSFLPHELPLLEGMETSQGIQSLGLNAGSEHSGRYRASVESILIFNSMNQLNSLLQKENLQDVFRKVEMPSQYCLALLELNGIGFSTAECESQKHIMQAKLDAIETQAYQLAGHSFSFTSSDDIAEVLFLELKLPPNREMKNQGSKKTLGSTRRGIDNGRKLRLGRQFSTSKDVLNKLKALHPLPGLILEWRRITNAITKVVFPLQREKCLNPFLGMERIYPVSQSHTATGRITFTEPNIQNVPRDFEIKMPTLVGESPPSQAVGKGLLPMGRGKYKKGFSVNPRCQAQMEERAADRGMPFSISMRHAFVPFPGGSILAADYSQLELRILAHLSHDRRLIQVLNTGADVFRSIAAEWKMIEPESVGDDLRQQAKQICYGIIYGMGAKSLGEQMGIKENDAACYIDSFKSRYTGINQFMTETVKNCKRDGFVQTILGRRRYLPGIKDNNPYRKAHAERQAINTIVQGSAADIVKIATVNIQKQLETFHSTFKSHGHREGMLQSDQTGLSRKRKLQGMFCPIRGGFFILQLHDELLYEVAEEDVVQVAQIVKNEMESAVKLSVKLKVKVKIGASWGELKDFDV
Read-out: enzyme activity
Action: inhibitor
Concentration: 77 µM
Baseline: untreated
Compound	remaining activity [%]
Cc1cccc(C(=O)NCN2CCN(c3ccccc3C#N)CC2)c1	98.6
CC1(C)S[C@@H]2[C@H](NC(=O)[C@H](N)c3ccccc3)C(=O)N2[C@H]1C(=O)OC1OC(=O)c2ccccc21 (some centres unmarked)	99.9
C[C@H](O)C(=O)C1=Nc2c(nc(N)[nH]c2=O)NC1	98.7
C[C@H]1C[C@H]2[C@@H]3CCC4=CC(=O)C=C[C@]4(C)[C@@]3(Cl)[C@@H](O)C[C@]2(C)[C@@]1(O)C(=O)CO	95
C=CCc1cc(OC)c(O)c(C(=O)NCCO)c1	96
Cc1ccc(NC(=O)C2(c3ccc4c(c3)OC(F)(F)O4)CC2)nc1-c1cccc(C(=O)O)c1	96.6
O=C(CCCS)NC1CCN(C(=O)COc2ccc(Cl)cc2Cl)CC1	102

Study 2
SMILES: Cc1nc(Cc2cccc(C(F)(F)F)c2)sc1-c1ccc(C(N)=O)nc1
Concentration: 1 µM
target	read-out	method	remaining binding [%]
Activin receptor type-1-like (ACVRL1, Homo sapiens, UniProt P37023)	binding	competition with immobilised ligand	99
Mitogen-activated protein kinase 1 (MAPK1, Homo sapiens, UniProt P28482)	cell-free assay	competition with immobilised ligand	95
Phosphatidylinositol 3-kinase C2 domain-containing subunit gamma (PIK3C2G, Homo sapiens, UniProt O75747)	cell-free assay	competition with immobilised ligand	93
Calcium/calmodulin-dependent protein kinase type 1G (CAMK1G, Homo sapiens, UniProt Q96NX5)	cell-free assay	competition with immobilised ligand	99
Cyclin-dependent kinase-like 5 (CDKL5, Homo sapiens, UniProt O76039)	binding	competition with immobilised ligand	100
Ephrin type-A receptor 4 (EPHA4, Homo sapiens, UniProt P54764)	cell-free assay	competition with immobilised ligand	100
Rhodopsin kinase GRK1 (GRK1, Homo sapiens, UniProt Q15835)	cell-free assay	competition with immobilised ligand	98
Mitogen-activated protein kinase kinase kinase 12 (MAP3K12, Homo sapiens, UniProt Q12852)	cell-free assay	competition with immobilised ligand	100
Protein kinase C theta type (PRKCQ, Homo sapiens, UniProt Q04759)	cell-free assay	competition with immobilised ligand	94
Serine/threonine-protein kinase 32B (STK32B, Homo sapiens, UniProt Q9NY57)	cell-free assay	competition with immobilised ligand	69
Protein kinase C iota type (PRKCI, Homo sapiens, UniProt P41743)	cell-free assay	competition with immobilised ligand	100
Mitogen-activated protein kinase kinase kinase 20 (MAP3K20, Homo sapiens, UniProt Q9NYL2)	cell-free assay	competition with immobilised ligand	73
Serine/threonine-protein kinase DCLK1 (DCLK1, Homo sapiens, UniProt O15075)	cell-free assay	competition with immobilised ligand	81
Casein kinase I isoform gamma-3 (CSNK1G3, Homo sapiens, UniProt Q9Y6M4)	cell-free assay	competition with immobilised ligand	93
Tyrosine-protein kinase FRK (FRK, Homo sapiens, UniProt P42685)	cell-free assay	competition with immobilised ligand	100
Serine/threonine-protein kinase 32A (STK32A, Homo sapiens, UniProt Q8WU08)	binding	competition with immobilised ligand	76
Serine/threonine-protein kinase Nek2 (NEK2, Homo sapiens, UniProt P51955)	cell-free assay	competition with immobilised ligand	100
Phosphatidylinositol 4-phosphate 5-kinase type-1 gamma (PIP5K1C, Homo sapiens, UniProt O60331)	cell-free assay	competition with immobilised ligand	84
Serine/threonine-protein kinase PLK4 (PLK4, Homo sapiens, UniProt O00444)	cell-free assay	competition with immobilised ligand	90
Tyrosine-protein kinase Fgr (FGR, Homo sapiens, UniProt P09769)	cell-free assay	competition with immobilised ligand	100
eIF-2-alpha kinase GCN2, C-terminal kinase domain (EIF2AK4, Homo sapiens, UniProt Q9P2K8, S808G)	cell-free assay	competition with immobilised ligand	100
Serine/threonine-protein kinase WNK1 (WNK1, Homo sapiens, UniProt Q9H4A3)	cell-free assay	competition with immobilised ligand	100
Mast/stem cell growth factor receptor Kit (KIT, Homo sapiens, UniProt P10721, V559D)	cell-free assay	competition with immobilised ligand	100
Insulin receptor (INSR, Homo sapiens, UniProt P06213)	cell-free assay	competition with immobilised ligand	95
Serine/threonine-protein kinase MRCK gamma (CDC42BPG, Homo sapiens, UniProt Q6DT37)		competition binding	100

Study 3
Structure (SMILES): CC(C)n1cnc(-c2ccc(F)cc2)c1-c1ncc(C(=O)Nc2ccc(N3CCN(C)CC3)cc2)[nH]1
Method: phase 2a clinical trial
Host: patients with idiopathic pulmonary fibrosis
item	dose	notes	patients with treatment-emergent adverse events
carbon dioxide decreased	60 mg once daily	Grade 4	0%
first degree atrioventricular block	30 mg once daily	Grade 5	0%
protein urine present	dose not given	Grade 2, all drug arms total	0%
hepatic function abnormal	60 mg once daily	Grade 2	0%
interstitial lung disease	dose not given	Grade 5, all drug arms	0%
electrocardiogram T wave abnormal	dose not given	Grade 3, all drug arms total	0%
electrocardiogram high voltage	30 mg once daily	Grade 3	0%

Study 4
Target: Eukaryotic initiation factor 4A-III (Homo sapiens, UniProt P38919)
Sequence of UniProt P38919 (whole entry, looked up): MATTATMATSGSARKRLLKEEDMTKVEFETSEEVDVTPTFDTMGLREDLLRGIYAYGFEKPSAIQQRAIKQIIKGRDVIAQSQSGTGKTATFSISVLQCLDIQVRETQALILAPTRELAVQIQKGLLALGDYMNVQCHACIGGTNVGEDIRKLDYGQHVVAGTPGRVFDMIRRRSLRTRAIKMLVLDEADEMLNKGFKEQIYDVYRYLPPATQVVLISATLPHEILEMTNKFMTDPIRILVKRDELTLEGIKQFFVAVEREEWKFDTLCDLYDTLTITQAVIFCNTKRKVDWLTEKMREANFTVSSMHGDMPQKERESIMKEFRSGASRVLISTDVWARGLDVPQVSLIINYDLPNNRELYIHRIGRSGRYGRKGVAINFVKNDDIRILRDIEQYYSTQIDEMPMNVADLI
Read-out: RNA clamping
Method: fluorescence polarization
Concentration: concentration not given
Added: FAM-labelled poly r(AG)8 RNA
Structure (SMILES)	fluorescence polarization change
COc1ccc([C@@]23Oc4cc(OC)cc(OC)c4[C@@](O)(C2=O)[C@H](C(=O)N(C)OC)[C@H]3c2ccccc2)cc1	-0.3 mP
COc1ccc([C@@]23Oc4cc(OC)cc(OC)c4[C@]2(O)[C@H](O)[C@H](C(=O)c2ccc(C)o2)[C@H]3c2ccccc2)cc1	17.3 mP
COc1cc(OC)c2c(c1)N(C)[C@]1(c3ccc(Br)cc3)C(=O)[C@@]2(O)[C@H](c2ccccc2)[C@H]1c1ccccc1	-8.6 mP
COC(=O)[C@H]1[C@@H](O)[C@@]2(O)c3c(F)cccc3N(C)[C@@]2(c2ccc(OC)cc2)[C@@H]1c1ccccc1	-0.6 mP
COC(=O)[C@H]1[C@@H](O)[C@@]2(O)c3c(OC)cc(OS(=O)(=O)c4ccc(C)cc4)cc3O[C@@]2(c2ccc(Br)cc2)[C@@H]1c1ccccc1	4.3 mP and 9.2 mP
C#CCCC1(CCOc2ccc([C@@H]3[C@@H](C(=O)c4ccco4)[C@@H](O)[C@@]4(O)c5c(OC)cc(OC)cc5O[C@@]34c3ccc(OC)cc3)cc2)N=N1	-0.9 mP
COC(=O)[C@H]1[C@@H](O)[C@@]2(O)c3c(OC)cc(OCc4ccccc4)cc3O[C@@]2(c2ccc(OC)cc2)[C@@H]1c1ccccc1	0.7 mP
C#CCN[C@@]12C(=O)[C@H](C(=O)OC)[C@@H](c3ccccc3)[C@]1(c1ccc(OC)cc1)Oc1cc(OC)cc(OC)c12	5.6 mP
CO/N=C(\c1ccco1)[C@H]1[C@@H](O)[C@@]2(O)c3c(OC)cc(OC)cc3O[C@@]2(c2ccc(OC)cc2)[C@@H]1c1ccccc1	7.7 mP
COc1ccc([C@@]23Oc4cc(OC)cc(OC)c4[C@]2(O)[C@H](O)[C@H](C(=O)NCCCC(OC)OC)[C@H]3c2ccccc2)cc1	46.8 mP

Study 5
SMILES: COc1cc(C(=O)N2CCC(N3CCN(C)CC3)CC2)ccc1Nc1ncc2c(n1)N(C)c1ccccc1C(=O)N2C
tested on	assay	system	conditions	inhibition [%]
STLK5 (mouse)	probe labelling, inhibitor, KiNativ ActivX ATP probe	mouse brain lysate	0.1 µM, activation loop peptide	-1.9
human PBMC	probe labeling, inhibitor, KiNativ profiling, item: DMkAANVLITR	cell lysate	1 µM, LYS2 site, added: ATP acyl-phosphate probe	-12.2
TRKC (mouse)	probe labelling, KiNativ, item: LYS1 site peptide	brain tissue lysate (mouse)	1 µM, added: ADP acyl-phosphate probe	14.8
human PBMC	probe labeling, inhibitor, KiNativ profiling, item: DVkPSNVLINK	cell lysate	1 µM, LYS2 site, added: ATP acyl-phosphate probe	-13.1
NDR1 (mouse)	probe labelling, KiNativ, item: DTGHVYAMkILR peptide, LYS1 site	brain tissue lysate (mouse)	0.1 µM, added: ATP acyl-phosphate probe	-0.4
human PBMC	probe labeling, inhibitor, KiNativ profiling	cell lysate	concentration not given, domain 1, LYS1 site, added: ADP acyl-phosphate probe 1 µM	2.2
mouse MAP3K5/MAP3K6/MAP3K7	probe labelling, KiNativ ADP probe	mouse brain lysate	0.1 µM, LYS1 site IAIkEIPER	7.8

Excerpt of the above (study 4):
Structure (SMILES)	fluorescence polarization change
COC(=O)[C@H]1[C@@H](O)[C@@]2(O)c3c(F)cccc3N(C)[C@@]2(c2ccc(OC)cc2)[C@@H]1c1ccccc1	-0.6 mP
COC(=O)[C@H]1[C@@H](O)[C@@]2(O)c3c(OC)cc(OS(=O)(=O)c4ccc(C)cc4)cc3O[C@@]2(c2ccc(Br)cc2)[C@@H]1c1ccccc1	4.3 mP and 9.2 mP
C#CCCC1(CCOc2ccc([C@@H]3[C@@H](C(=O)c4ccco4)[C@@H](O)[C@@]4(O)c5c(OC)cc(OC)cc5O[C@@]34c3ccc(OC)cc3)cc2)N=N1	-0.9 mP
COC(=O)[C@H]1[C@@H](O)[C@@]2(O)c3c(OC)cc(OCc4ccccc4)cc3O[C@@]2(c2ccc(OC)cc2)[C@@H]1c1ccccc1	0.7 mP
C#CCN[C@@]12C(=O)[C@H](C(=O)OC)[C@@H](c3ccccc3)[C@]1(c1ccc(OC)cc1)Oc1cc(OC)cc(OC)c12	5.6 mP
